Measurements gathered from unrelated publications.
Each numbered part is a random draw from the data of one study; scales do not carry over between parts.

Block 1
Target: RNA binding protein fox-1 homolog 2, RRM domain, GST-SBP tag (RBFOX2, Homo sapiens, UniProt O43251-10, residues 100-194)
Technique: RNA Bind-n-Seq
Form: RNA
Medium: in vitro
Concentration: 365 nM
Notes: natural RNA segment, single round, ends assumed
Baseline: no-protein control
Direction: higher = stronger binding
Constant ends, left off below: GGGAGUUCUACAGUCCGACGAUC … UGGAAUUCUCGGGUGCCAA
Residues (chain): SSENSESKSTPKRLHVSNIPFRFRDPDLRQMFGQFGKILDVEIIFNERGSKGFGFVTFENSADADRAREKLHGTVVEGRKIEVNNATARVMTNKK
| Sequence | RBNS enrichment (R) |
| --- | --- |
| CGAGCGUUUGAGAAGAGGGCAUGGCGCUGGAGUGAGAUGGGAUUUGGCGUCUCGUUUUUGGCUAAUUGAUUGUCAUUGGCUUUUUCCAUAAAGUUUAGAAAUCGUUCAGU | 0.559 |
| GACGCCACCGCUGCUCUUCUUGCGUUUUUGUAAUCUUUUCAUUUUUGAAGCUUCCAAUUUGCUUGCUGCUGCUGCUGCCUGGGGGCCAGGACAGAGGUAGUGGCGGCCCC | 0.769 |
| AGGGGCCUGCUGCAUGCUACGCAUUGGGAUGGGUGCCCGACAUAAUACUGAAUCCUCAAGAAGCCUUGUCAAGUUUGUAGGUAUCAUUGACGUUUUGACGAUGAGGAAAG | 9.86 |
| AGGAUCCUCCAAUUUUGGAUCUUCUACAGAUCCCCCAGUGUUCUAGUUUAGUAAACUGGCCCAUUUGGGCUGAAGAACUUGUGUGGAAAGAGUCCAAACAACUCAUCAUU | 0.314 |
| GUCAAGGAUUUGUUGGUAAAUGGAACAUUUUAGCAUAGUCAUGAUUUUUGGUUGCCUAGACAUCAGGUAAACAUUCAGUACACUAAAGAAACUAUCCUGGACACUCCCUC | 0.287 |
| GGAGAGCAGGUUACUUGGCAACCAUAUUGUCACCUGUACCUGUCACACAUCUUGAAAAAUAAAACGAUAAUAGAACUAGUGACUAAUUUUCCCUUACAGUUCCUGCUUGG | 0.587 |
| CAGAGUUGUUUCCCAAUUCUGGAGGGAAGCUGAAUGGACACGGCUUCGUCAGUUUGCAUUUCUUUACUCCCACAAGGCUCUGCGGGGUCUUGGUGUGAGACAAGGCACAU | 0.622 |
| UACUGUUUCAGAGUUGAGAGUUGGUGGUGCAAAUAUGUAUAUAAUGAACUGUAUUUUUACAAUGAUCGCCGCAUGACUAUUUCACACCCUUUUUAUACUCCAUAUCUGUC | 2.6 |

Block 2
Target: Sal-like protein 4, full length isoform A (SALL4, Homo sapiens, UniProt Q9UJQ4, residues 1-1053)
UniProt Q9UJQ4, sequence (whole entry, looked up): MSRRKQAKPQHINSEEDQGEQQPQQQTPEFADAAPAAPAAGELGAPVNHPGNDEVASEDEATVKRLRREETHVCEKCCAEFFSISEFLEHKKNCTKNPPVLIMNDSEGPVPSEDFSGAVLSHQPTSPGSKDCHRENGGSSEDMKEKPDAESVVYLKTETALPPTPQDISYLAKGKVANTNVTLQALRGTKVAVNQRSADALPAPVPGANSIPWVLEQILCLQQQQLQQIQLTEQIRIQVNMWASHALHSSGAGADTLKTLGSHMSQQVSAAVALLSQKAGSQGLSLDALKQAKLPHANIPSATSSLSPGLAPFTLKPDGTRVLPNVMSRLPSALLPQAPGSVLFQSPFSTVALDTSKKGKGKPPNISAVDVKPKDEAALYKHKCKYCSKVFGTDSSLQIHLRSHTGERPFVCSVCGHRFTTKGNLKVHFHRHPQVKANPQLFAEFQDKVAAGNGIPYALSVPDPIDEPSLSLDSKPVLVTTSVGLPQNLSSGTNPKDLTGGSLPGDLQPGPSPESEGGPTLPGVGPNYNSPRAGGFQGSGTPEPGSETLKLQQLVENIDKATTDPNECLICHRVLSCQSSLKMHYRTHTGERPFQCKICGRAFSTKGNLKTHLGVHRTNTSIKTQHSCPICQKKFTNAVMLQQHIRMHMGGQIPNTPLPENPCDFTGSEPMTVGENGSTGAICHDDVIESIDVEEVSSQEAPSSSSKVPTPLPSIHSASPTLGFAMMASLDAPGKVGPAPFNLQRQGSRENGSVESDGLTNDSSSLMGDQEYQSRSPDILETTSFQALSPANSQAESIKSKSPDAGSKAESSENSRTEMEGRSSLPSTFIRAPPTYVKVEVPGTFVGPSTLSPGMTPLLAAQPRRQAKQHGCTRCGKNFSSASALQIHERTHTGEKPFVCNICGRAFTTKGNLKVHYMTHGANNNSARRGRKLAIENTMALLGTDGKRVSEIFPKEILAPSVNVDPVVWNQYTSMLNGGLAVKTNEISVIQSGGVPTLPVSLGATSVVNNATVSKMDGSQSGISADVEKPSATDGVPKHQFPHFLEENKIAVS
Technique: universal PBM
Form: double-stranded DNA, one strand shown
Medium: in vitro
Concentration: 600 nM
Notes: 8-mer, flanks averaged, mean of replicates
Direction: higher = stronger binding
| Sequence | E-score |
| --- | --- |
| CACTTAAG | 0.108 |
| CCACAAAA | 0.0569 |
| AATCGAGA | 0.123 |
| CAACAGTG | 0.0139 |
| AGGCATGC | -0.0601 |
| AGTCCCGA | -0.231 |
| AGAGTAGG | 0.083 |
| AAAATACA | 0.331 |
| CCGCTGAC | -0.261 |
| CGAGCGCA | -0.0509 |
| ACCCAGGA | -0.206 |
| TACAAGGA | 0.028 |
| GTTCGTTA | 0.148 |
| CTCCTATA | 0.162 |
| GAGGACGA | -0.121 |
| TGCTGCAA | 0.102 |
| AGTCCCTA | 0.0525 |
| TGATGCCA | 0.0495 |
| CTCCGCAG | -0.182 |

Block 3
Target: Fragile X messenger ribonucleoprotein 1, C-terminal low-complexity region (Fmr1, Mus musculus, UniProt P35922)
Technique: RNA Bind-n-Seq
Form: RNA
Medium: in vitro
Concentration: 200 nM
Notes: whole 134-nt RNA, ends assumed
Added: 150 mM KCl
Baseline: input library
Direction: higher = stronger binding
Constant ends, left off below: GGGAGUUCUACAGUCCGACGAUC … UGGAAUUCUCGGGUGUCAAGG
| Sequence | log2 enrichment |
| --- | --- |
| CACAGACAACACGCACCCACACAGACACAGAGGGAAGGGGUUGGGAUGGGGACAGGGUGCACAGCAGGGCGGGGUUGGACCCCAGCCCCU | 1.33 |
| UAGCCCUGGUGGCAUGCGGGGAGGAAGAGGUGGCCUCAUGGAUCGUGGUGGUCCCGGUGGAAUGUUCAGAGGUGGCCGUGGUGGAGACAG | 0.082 |
| CCUGUGCUACACAUCGUAUGUACCGAAUCGGGGUUUUUUUGGGGAAAAAAAGGGGAGGGGAAAGUAUUAUGUUACGCCGUUCGGAUCUGC | 0.157 |
| UGUUGGAGGGACGAUGGUCCGCUCCGGGCAGGACCCUUACGCCCGCAACAAGUUCAACCAGGUGGAGAGUGAUAAGCUUCGAAUGGACAG | -1.7 |
| GUCCUGUGCUACACAUCGUAUGUACCGAAUCGGGGAAAAAGGGGUUUGGGGUUUGGGGAAAGUAUUAUGUUACGCCGUUCGGAUCUGCAC | 0.765 |
| AAGUCCUGUGCUACACAUCGUAUGUACCGAAUCGGGUUUUGGGGUUUUGGUUUUGGAAAGUAUUAUGUUACGCCGUUCGGAUCUGCACUU | -0.352 |
| UCCUGUGCUACACAUCGUAUGUACCGAAUCGGGGUUUUUUGGGGUUUUUUGGUUUUUUGGAAAGUAUUAUGUUACGCCGUUCGGAUCUGC | 0.116 |
| UGUGCGGGAGACAGGCGCCAACGGCACCUCUUUCAGUGUCCGCAAGACAGCCUACUGCGACAUCCACACGCCUCCAGGUUCAGCACGCCG | -0.0253 |
| UGGCCCUGGUGGCAUGCGGGGAGGAAGAGGUGGCCUCAUGGAUCGUGGUGGUCCCGAUGGAAUGUUCAGAGGUGGCCGUGGUGGAGACAG | -0.167 |

Block 4
Target: PABPC1L2, full length, GST fusion (mouse, UniProt A0ABA7IW68)
Technique: RNAcompete
Form: RNA
Medium: in vitro
Concentration: 20 nM
Notes: 7-mer, probes averaged, single round
Baseline: mean of 7-mers
Direction: higher = stronger binding
Target sequence (chain): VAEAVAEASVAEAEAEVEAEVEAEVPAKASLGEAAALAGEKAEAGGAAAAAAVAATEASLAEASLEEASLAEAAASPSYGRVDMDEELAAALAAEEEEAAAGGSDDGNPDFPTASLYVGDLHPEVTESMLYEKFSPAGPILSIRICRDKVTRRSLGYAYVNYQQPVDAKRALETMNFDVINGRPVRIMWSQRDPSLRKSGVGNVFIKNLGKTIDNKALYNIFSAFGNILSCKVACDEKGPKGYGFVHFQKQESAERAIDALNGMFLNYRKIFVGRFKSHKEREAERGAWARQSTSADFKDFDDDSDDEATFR
| Sequence | 7-mer Z-score |
| --- | --- |
| UGAGUCA | -0.179 |
| ACGCGCA | -0.0772 |
| GUGCGCA | -0.00652 |
| CCCUGCU | -0.44 |
| CAUAACG | 0.0714 |
| CGAUAGG | 0.0207 |
| CCUUCCG | -0.393 |
| GUCUUAU | -0.4 |
| UCAUAGA | -0.0409 |
| UCAGGCU | -0.164 |
| UGGGACC | -0.0609 |
| UACGUGU | -0.144 |
| UAAAAGG | 1.29 |
| GCGGUUA | 0.151 |
| UGAGUUU | -0.479 |
| GGACUCU | -0.166 |
| CUGCGCC | -0.476 |
| UAUUUAU | -0.0391 |
| CAAUAGG | 0.0334 |
| AAUGCGG | 0.396 |
| CUGAUUU | -0.117 |
| GGGCCAC | -0.0645 |
| AGCCGGC | -0.313 |

Block 5
Target: Histone acetyltransferase KAT6A, both winged helices, GST fusion (KAT6A, Homo sapiens, UniProt Q92794, residues 1-181)
Technique: protein binding microarray
Form: double-stranded DNA, one strand shown
Medium: in vitro
Concentration: not given
Notes: 8-mer, flanks averaged, mean of 2 arrays, mostly near background
Baseline: not given
Direction: higher = stronger binding
Construct (chain): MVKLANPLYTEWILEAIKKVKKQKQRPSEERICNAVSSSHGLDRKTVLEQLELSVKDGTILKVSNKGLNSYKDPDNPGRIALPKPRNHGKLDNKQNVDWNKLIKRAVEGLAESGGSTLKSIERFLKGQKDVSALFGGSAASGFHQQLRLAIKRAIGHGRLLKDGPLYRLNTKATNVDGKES
| Sequence | E-score |
| --- | --- |
| ACGGCAGC | 0.249 |
| CCAATCAA | -0.0333 |
| CCCGATAC | 0.0647 |
| CGCGGCAG | 0.368 |
| ACCGGATC | 0.0424 |
| CGCTCAGC | 0.268 |
| AACTCAAA | -0.172 |
| CTTACAAG | -0.0569 |
| GTCAAGGA | -0.0379 |
| CACCTCTC | -0.105 |
| CTGGGGGC | -0.165 |
| GATGTTTA | -0.0295 |
| CATGTGCA | -0.0495 |
| ATCTTTGG | -0.294 |
| CACACCTG | -0.104 |
| CGTACGTA | 0.0718 |
| CGCCACCC | 0.121 |
| GTAATGCA | -0.124 |
| AGCCCTTA | -0.144 |
| ACAGCGAG | 0.0759 |
| CTTAAATA | -0.0611 |
| CACCTCTG | -0.258 |
| AACATGCC | 0.159 |

A few entries again (block 2):
| Sequence | E-score |
| --- | --- |
| AAAATACA | 0.331 |
| TGCTGCAA | 0.102 |
| AGTCCCTA | 0.0525 |
| TACAAGGA | 0.028 |
| CGAGCGCA | -0.0509 |
| CAACAGTG | 0.0139 |
| GAGGACGA | -0.121 |
| AGTCCCGA | -0.231 |
